# Experimental data gathered from unrelated publications.
# Lines come from different studies, so protocols differ. “And” joins repeats or separate records; there may be more than shown. ± gives the spread as reported.
# SRC: Proto-oncogene tyrosine-protein kinase Src (SRC, Homo sapiens, UniProt P12931)
# SLC22A11: Solute carrier family 22 member 11 (SLC22A11, Homo sapiens, UniProt Q9NSA0)
# Sequence of UniProt Q9NSA0 (whole entry, looked up): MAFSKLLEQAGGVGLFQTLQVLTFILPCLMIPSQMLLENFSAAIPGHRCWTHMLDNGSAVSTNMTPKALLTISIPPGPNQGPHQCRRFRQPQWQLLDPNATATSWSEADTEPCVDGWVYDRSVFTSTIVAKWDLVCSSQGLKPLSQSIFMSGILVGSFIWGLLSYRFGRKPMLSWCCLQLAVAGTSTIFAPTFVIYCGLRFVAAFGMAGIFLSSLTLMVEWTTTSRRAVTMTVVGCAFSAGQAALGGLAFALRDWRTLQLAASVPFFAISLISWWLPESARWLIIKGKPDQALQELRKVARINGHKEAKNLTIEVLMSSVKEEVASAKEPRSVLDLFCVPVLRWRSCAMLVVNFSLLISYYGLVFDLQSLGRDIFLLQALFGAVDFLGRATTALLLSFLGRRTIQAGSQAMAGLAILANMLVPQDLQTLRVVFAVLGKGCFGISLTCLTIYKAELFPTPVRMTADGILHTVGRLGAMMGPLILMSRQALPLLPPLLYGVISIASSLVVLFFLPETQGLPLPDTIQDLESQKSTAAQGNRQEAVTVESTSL
# PADI4: Protein-arginine deiminase type-4 (PADI4, Homo sapiens, UniProt Q9UM07)
# Sequence of UniProt Q9UM07 (whole entry, looked up): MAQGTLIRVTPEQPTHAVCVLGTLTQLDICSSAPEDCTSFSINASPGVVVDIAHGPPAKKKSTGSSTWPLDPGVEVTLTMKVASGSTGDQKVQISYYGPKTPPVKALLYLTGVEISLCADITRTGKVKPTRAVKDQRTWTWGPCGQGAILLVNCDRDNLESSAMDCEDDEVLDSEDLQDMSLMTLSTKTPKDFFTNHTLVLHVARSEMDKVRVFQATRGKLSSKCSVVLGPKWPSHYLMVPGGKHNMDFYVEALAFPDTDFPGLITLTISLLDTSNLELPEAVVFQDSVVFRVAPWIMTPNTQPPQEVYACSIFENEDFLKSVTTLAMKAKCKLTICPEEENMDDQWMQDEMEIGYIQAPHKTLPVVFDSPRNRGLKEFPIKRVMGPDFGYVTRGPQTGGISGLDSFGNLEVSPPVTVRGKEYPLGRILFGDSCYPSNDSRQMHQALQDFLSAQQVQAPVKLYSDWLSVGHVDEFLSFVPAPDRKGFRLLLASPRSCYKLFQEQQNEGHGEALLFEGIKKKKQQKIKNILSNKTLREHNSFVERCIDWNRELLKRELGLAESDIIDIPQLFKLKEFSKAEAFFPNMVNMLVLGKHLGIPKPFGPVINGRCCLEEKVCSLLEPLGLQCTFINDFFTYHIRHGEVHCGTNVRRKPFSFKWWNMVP
# Proteasome subunit beta type-9: Proteasome subunit beta type-9 (Homo sapiens, UniProt P28065)
# Sequence of UniProt P28065 (whole entry, looked up): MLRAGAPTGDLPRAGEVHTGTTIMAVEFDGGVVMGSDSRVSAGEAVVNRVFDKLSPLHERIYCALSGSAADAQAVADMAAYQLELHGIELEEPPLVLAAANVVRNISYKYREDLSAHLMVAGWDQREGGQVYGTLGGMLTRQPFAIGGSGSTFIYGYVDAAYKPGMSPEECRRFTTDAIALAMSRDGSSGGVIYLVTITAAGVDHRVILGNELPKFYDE
# P2RX4: P2X purinoceptor 4 (P2RX4, Homo sapiens, UniProt Q99571)
# Sequence of UniProt Q99571 (whole entry, looked up): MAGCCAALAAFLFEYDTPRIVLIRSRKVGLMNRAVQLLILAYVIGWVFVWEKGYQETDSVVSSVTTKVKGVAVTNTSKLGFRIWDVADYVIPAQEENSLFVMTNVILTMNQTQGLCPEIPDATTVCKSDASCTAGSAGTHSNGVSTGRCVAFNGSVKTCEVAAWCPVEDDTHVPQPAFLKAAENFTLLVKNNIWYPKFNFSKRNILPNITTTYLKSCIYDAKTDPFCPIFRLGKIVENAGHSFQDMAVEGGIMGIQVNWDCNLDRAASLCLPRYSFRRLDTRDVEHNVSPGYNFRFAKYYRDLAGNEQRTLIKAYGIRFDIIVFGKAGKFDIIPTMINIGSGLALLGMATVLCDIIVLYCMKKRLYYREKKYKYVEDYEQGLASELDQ
# SOD1 fully metallated: Superoxide dismutase [Cu-Zn], fully metallated (SOD1, Homo sapiens, UniProt P00441)
# Sequence of UniProt P00441 (whole entry, looked up): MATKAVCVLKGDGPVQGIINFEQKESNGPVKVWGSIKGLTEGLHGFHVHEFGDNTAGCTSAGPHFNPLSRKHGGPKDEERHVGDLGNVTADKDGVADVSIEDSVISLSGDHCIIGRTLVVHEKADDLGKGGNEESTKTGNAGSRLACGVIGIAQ
# Probable G-protein coupled receptor 34: Probable G-protein coupled receptor 34 (Homo sapiens, UniProt Q9UPC5)
# Sequence of UniProt Q9UPC5 (whole entry, looked up): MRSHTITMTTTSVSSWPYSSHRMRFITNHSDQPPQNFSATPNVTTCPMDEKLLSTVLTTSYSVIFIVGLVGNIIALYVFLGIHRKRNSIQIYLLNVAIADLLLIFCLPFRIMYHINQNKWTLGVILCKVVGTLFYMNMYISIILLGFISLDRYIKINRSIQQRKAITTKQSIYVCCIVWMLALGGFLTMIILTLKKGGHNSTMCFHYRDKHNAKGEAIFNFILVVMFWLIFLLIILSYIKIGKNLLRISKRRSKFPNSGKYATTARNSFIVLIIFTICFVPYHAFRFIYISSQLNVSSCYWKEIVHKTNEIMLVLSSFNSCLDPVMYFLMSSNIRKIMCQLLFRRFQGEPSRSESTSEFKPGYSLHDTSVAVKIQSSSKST
# pyrD: Dihydroorotate dehydrogenase (quinone) (pyrD, Acinetobacter baumannii, UniProt B7GZW7)
# Sequence of UniProt B7GZW7 (whole entry, looked up): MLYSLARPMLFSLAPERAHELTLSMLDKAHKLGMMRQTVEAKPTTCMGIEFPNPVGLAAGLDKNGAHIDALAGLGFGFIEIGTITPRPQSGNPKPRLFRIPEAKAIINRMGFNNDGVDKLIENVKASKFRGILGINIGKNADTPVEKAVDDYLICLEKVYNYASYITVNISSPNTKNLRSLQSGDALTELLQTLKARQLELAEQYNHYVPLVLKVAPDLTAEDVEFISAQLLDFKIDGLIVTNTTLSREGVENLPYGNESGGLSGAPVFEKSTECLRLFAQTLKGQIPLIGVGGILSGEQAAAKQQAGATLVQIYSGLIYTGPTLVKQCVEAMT
# Sequence of UniProt Q8C6L5 (whole entry, looked up): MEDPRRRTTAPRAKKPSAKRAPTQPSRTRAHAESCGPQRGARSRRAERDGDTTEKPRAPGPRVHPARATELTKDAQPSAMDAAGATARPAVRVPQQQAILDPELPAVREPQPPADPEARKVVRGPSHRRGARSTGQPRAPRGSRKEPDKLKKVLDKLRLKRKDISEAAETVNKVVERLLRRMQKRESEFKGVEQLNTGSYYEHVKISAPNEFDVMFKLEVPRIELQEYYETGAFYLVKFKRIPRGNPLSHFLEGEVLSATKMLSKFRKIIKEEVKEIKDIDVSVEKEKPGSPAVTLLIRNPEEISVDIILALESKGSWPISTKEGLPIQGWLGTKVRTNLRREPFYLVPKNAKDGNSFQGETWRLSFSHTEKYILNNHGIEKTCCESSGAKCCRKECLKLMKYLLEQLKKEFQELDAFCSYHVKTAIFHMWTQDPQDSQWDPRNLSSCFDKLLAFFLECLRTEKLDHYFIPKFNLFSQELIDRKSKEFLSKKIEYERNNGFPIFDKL
# Sequence of UniProt Q9NPD5 (whole entry, unmodified, looked up): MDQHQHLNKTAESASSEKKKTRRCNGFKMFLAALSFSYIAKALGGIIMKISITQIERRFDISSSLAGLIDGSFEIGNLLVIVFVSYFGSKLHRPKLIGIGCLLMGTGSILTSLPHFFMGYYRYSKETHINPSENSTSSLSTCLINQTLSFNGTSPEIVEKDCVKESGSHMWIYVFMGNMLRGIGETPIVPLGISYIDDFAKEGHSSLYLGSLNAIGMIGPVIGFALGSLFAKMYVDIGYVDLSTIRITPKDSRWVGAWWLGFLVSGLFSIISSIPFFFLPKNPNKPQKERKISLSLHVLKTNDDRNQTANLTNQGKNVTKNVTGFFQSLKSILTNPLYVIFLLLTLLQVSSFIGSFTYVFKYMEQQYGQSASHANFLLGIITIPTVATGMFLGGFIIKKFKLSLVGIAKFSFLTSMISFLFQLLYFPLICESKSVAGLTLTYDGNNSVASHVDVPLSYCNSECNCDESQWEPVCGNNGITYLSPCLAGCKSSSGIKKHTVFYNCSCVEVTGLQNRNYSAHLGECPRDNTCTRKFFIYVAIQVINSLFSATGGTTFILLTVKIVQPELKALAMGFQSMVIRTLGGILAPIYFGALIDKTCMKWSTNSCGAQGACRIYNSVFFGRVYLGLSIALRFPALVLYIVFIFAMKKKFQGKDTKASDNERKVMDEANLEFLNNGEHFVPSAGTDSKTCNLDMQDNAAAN
# Sequence of UniProt Q9GZU7 (whole entry, looked up): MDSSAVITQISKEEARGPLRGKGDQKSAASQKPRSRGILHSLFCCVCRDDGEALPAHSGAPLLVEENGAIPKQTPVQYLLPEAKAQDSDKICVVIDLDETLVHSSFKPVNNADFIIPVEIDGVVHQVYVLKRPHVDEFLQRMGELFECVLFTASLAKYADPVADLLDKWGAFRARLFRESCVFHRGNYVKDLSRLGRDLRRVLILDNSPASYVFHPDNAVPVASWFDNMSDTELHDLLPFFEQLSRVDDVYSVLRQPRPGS
# Sequence of UniProt Q9R1P1 (whole entry, looked up): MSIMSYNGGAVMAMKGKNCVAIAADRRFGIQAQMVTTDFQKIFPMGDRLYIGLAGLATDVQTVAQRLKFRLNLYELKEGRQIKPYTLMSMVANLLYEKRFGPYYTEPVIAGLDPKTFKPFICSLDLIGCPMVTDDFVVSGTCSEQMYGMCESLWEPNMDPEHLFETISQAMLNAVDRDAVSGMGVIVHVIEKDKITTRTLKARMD
SMILES,target,test,test system,conditions,IC50
Cc1nn(-c2nc3c(F)cc(F)cc3s2)c(O)c1C(c1ccc(C(F)(F)F)cc1)c1c(C)nn(-c2nc3c(F)cc(F)cc3s2)c1O,"Cyclic GMP-AMP synthase (Cgas, Mus musculus, UniProt Q8C6L5)","enzyme activity, inhibitor, pyrophosphatase-coupled",,mouse cGAS,3.43 µM and 2.15 µM
Cc1cnc(-c2ccc(-c3ccc(NC(=O)Nc4c(F)cc(F)cc4F)cc3F)c3c2C(=O)NC3)[nH]1,SRC,"enzyme activity, inhibitor, mobility shift",,with: ATP 1 mM,0.258 µM
CN(C)C(=O)/N=N/C(=O)N(C)C,"Protein-arginine-phosphatase (ywle, Geobacillus stearothermophilus, UniProt S0F332)",,,"pH 7.6, 25 °C, with: pNPP substrate",4200 ± 300 µM
C[C@]12CC[C@@H]3c4ccc(OS(=O)(=O)O)cc4CC[C@H]3[C@@H]1CCC2=O,SLC22A11,"transport, inhibitor",CHO expressing hOAT4,"5 min, with: [3H]estrone sulfate 14 nM",13.8 ± 3.6 µM
CCn1c(-c2nc3cc(C(=O)N4CCC[C@@H](N)C4)cc(OC)c3n2C)cc2cccnc21,PADI4,"binding, fluorescence polarisation",,"with: tracer displacement, 10 mM Ca2+",2.2 µM
COc1ccc(C[C@H](NC(=O)[C@H](C)NC(=O)CN2CCOCC2)C(=O)N[C@@H](CC2CCC(C3CCCCC3)CC2)C(=O)[C@@]2(C)CO2)cc1 (stereo partly shown),Proteasome subunit beta type-9,"inhibitor, competitive ABPP",Raji cell lysate,,> 100 µM
CN1CCN(c2ccc(Nc3ncc4cc(C#N)c(=O)n(C5CCCC5)c4n3)cc2)CC1,"Serine/threonine-protein kinase TAO1 (TAOK1, Homo sapiens, UniProt Q7L7X3)",,,,0.0634 µM
Fc1ccc(N2CCNCC2COc2ccccc2)cc1 (stereo not shown),P2RX4,"calcium flux, inhibitor, Ca2+ flux",human cells,,8.71 ± 1.39 µM
Nc1nc(=O)n([C@H]2C[C@H](O)[C@@H](CO)O2)cc1CSCCC[C@H]1O[C@@H](n2cnc3c(N)ncnc32)[C@H](O)[C@@H]1O,"DNA (cytosine-5)-methyltransferase 1 (DNMT1, Homo sapiens, UniProt P26358)",,,"truncated enzyme, with: 26 bp hemimethylated DNA, SAM 1 µM",3.9 µM
CN(C)c1ccc2nc3ccc(=[N+](C)C)cc-3sc2c1,SOD1 fully metallated,"enzyme activity, inhibitor, XTT",,,> 75 µM
O=C(CCCCCCC(=O)Nc1ccc(CCF)cc1)NO,"Histone deacetylase 8 (HDAC8, Homo sapiens, UniProt Q9BY41)",,,,0.115 µM
CC(C)n1c(/C=C/C(O)CC(O)CC(=O)O)c(-c2ccc(F)cc2)c2ccccc21 (stereo not shown),"Solute carrier organic anion transporter family member 1B3 (SLCO1B3, Homo sapiens, UniProt Q9NPD5, M233I/S112A)","estradiol glucuronide uptake, inhibitor",SLCO1B3-expressing cells,"2 min, with: 1 µM [3H]estradiol glucuronide",8.57 ± 0.151 µM
CN(C)c1nonc1/C(=N/O)Nc1ccc(F)c(Br)c1,"Indoleamine 2,3-dioxygenase 1 (IDO1, Homo sapiens, UniProt P14902)","enzyme activity, inhibitor",,pH 6.5,> 20 µM
CC(C)C[C@@H](N)[C@H](O)C(=O)N[C@H](C(=O)N[C@H](C(=O)N[C@@H](CC(=O)O)C(=O)O)C(C)C)C(C)C,rat aminopeptidase III,"enzyme activity, inhibitor",,,0.05 µM
Cc1ncc(C(=O)N[C@@H](CC2CCC(C3CCCCC3)CC2)C(=O)N[C@@H](CC(C)C)C(=O)N[C@H](/C=C/S(C)(=O)=O)Cc2ccc(CN)cc2)s1 (stereo partly shown),Proteasome subunit beta type-9,competitive ABPP,Raji cell lysate,,> 10 µM
COc1ccc(OCC2CNCCN2c2ccc(F)cc2)cc1OC (stereo not shown),P2RX4,"calcium flux, inhibitor, Ca2+ flux",human cells,,> 100 µM
O=C1OC2(c3ccccc31)c1cc(Br)c(O)c(Br)c1Oc1c2cc(Br)c(O)c1Br,SOD1 fully metallated,"enzyme activity, inhibitor, XTT",,,> 75 µM
COc1cc(F)cc2c(N3CCN4c5ccccc5NC(=O)C4C3)c(C#N)nnc12 (stereo not shown),"Metabotropic glutamate receptor 7 (Grm7, Rattus norvegicus, UniProt P35400)","receptor response, negative allosteric modulator",,with: L-AP4 EC20,1.2 µM
COc1ccc(C[C@H](NC(=O)[C@H](C)NC(=O)CN2CCOCC2)C(=O)N[C@@H](CC2CCC(OC)CC2)C(=O)[C@@]2(C)CO2)cc1 (stereo partly shown),Proteasome subunit beta type-9,competitive ABPP,Raji cell lysate,,> 10 µM
CNCc1cc(-c2ccccc2F)n(S(=O)(=O)c2cccnc2)c1,"Potassium-transporting ATPase alpha chain 1 (Sus scrofa, UniProt P19156)","enzyme activity, inhibitor",porcine gastric vesicles,pH 6.5,0.0225 µM
CC(C)C[C@H](NC(=O)[C@H](CCc1ccccc1)NC(=O)CN1CCOCC1)C(=O)N[C@@H](Cc1ccccc1)C(=O)N[C@@H](CC(C)C)C(=O)[C@@]1(C)CO1,"Psmb7/Psmb3, β2 subunit (Mus musculus, UniProt P70195+Q9R1P1)",proteasome subunit activity,Ba/F3 BCR-ABL1 T315I,1 h pulse,0.151 ± 0.0162 µM
COc1cc(-c2cc(C(C)=O)n3ccccc23)c(OC)cc1Cn1ccnc1,"Bromodomain-containing protein 7 (BRD7, Homo sapiens, UniProt Q9NPI1)",inhibitor,,,0.076 µM
c1cc(N2CCNCC2COc2ccc3c(c2)OCO3)ccn1 (stereo not shown),P2RX4,"calcium flux, inhibitor, Ca2+ flux",human cells,,2.69 ± 1.56 µM
Cn1cc(-c2ccc3c(c2)CCN3C(=O)Cc2cccc(C(F)(F)F)c2)c2c(N)ncnc21,Probable G-protein coupled receptor 34,"antagonist, Tango",,with: LysoPS 5 µM,> 10 µM
c1ccc(N2CCNCC2COc2ccc3c(c2)OCO3)cc1 (stereo not shown),P2RX4,"Ca2+ flux, antagonist",human cells expressing P2RX4,racemate tested,> 10 µM
COC(=O)C1=C(CCOCc2ccccc2)CCCC1(C)C=O (stereo not shown),"Presenilin-1, in γ-secretase complex (PSEN1, Homo sapiens, UniProt P49768)","gamma-secretase activity, inhibitor, AlphaLISA",,with: Notch1 substrate,5.32 ± 0.7 µM
CCn1c(-c2nc3ccc(C(=O)N4CCCC(N)C4)cc3n2C)cc2ccccc21 (stereo not shown),PADI4,"binding, fluorescence polarisation",,"with: 10 nM tracer displacement, 2 mM Ca2+",> 100 µM
COc1ccccc1S(=O)(=O)N1CCNCC1COc1ccc2ccccc2c1 (stereo not shown),P2RX4,"Ca2+ flux, antagonist",human cells expressing P2RX4,racemate tested,> 10 µM
O=C1C(CC[S+]([O-])c2ccccc2)C(=O)N(c2ccccc2)N1c1ccccc1 (stereo not shown),SLC22A11,"transport, inhibitor",CHO expressing hOAT4,"5 min, with: [3H]estrone sulfate 14 nM",20 ± 1.6 µM
CCOc1cccc(/C=N/NC(=O)c2ccccn2)c1O,"CLEC1B, with podoplanin (Homo sapiens, UniProt Q9P126)","podoplanin binding, inhibitor, AlphaScreen",,"250 nM CLEC-2, with: 50 nM biotinylated podoplanin-Fc",6.7 µM
CNc1cc(Nc2ccc(C(F)(F)F)cc2)n2ncnc2n1,pyrD,"enzyme activity, inhibitor, DCIP steady-state rate",,,0.85 ± 0.16 µM
CCn1c(=O)c(-c2ccc(-c3cncs3)cc2Cl)cc2cnc(Nc3ccc(N4CCN(C)CC4)cc3)nc21,Probable G-protein coupled receptor 34,"antagonist, Tango",,with: LysoPS 5 µM,> 10 µM
Cc1ncc(C(=O)N[C@@H](CC2CCCC3CCCCC32)C(=O)N[C@@H](CC(C)C)C(=O)N[C@H](/C=C/S(C)(=O)=O)Cc2ccc(CN)cc2)s1 (stereo partly shown),Proteasome subunit beta type-9,competitive ABPP,Raji cell lysate,,> 10 µM
NC(=O)c1nnn(Cc2cc(Cl)c(C(=O)c3ccc(Cl)cc3)c(Cl)c2)c1N,"Voltage-dependent L-type calcium channel subunit alpha-1C (CACNA1C, Homo sapiens, UniProt Q13936)","calcium influx, blocker, calcium flux",,"30 min, top concentration 10 µM",8.35 µM
CCC[C@H](NC(=O)/C(C#N)=C/c1cccc(Br)n1)c1ccccc1,"Ubiquitin carboxyl-terminal hydrolase 16 (USP16, Homo sapiens, UniProt Q9Y5T5)","deubiquitinase activity, inhibitor, MALDI-TOF DUB",,"30 °C, 35 min pre-incubation",2.49 µM
CCn1c2ccccc2c2cc(NC(=O)COc3ccc(S(=O)(=O)N4CCOCC4)cc3)ccc21,Probable G-protein coupled receptor 34,"antagonist, Tango",,with: LysoPS 5 µM,> 10 µM
Cc1ccc(NC(=O)c2ccc(C)c(C(F)(F)F)c2)cc1C#Cc1nn(C2CCC(O)CC2)c2ncnc(N)c12 (stereo not shown),"Receptor tyrosine-protein kinase erbB-2 (ERBB2, Homo sapiens, UniProt P04626)","inhibitor, radiometric kinase",,with: ATP 10 µM,0.165 µM
O=S(=O)(c1ccccc1)N1CCNCC1COc1ccc2ccccc2c1 (stereo not shown),P2RX4,"calcium flux, inhibitor, Ca2+ flux",human cells,,6.46 ± 0.13 µM
COc1ccc2c(=O)[nH]c3c(nnn3Cc3ccc(C)cc3)c2c1,"Protein mono-ADP-ribosyltransferase PARP11 (PARP11, Homo sapiens, UniProt Q9NR21)",,,,0.0977 µM
Cc1ccc(CNC(=O)CSCc2nc(-c3cccc(C)c3)oc2C)cc1,Probable G-protein coupled receptor 34,"antagonist, Tango",,with: LysoPS 5 µM,> 10 µM
Cc1ncc(C(=O)N[C@@H](CC(C)C)C(=O)N[C@@H](CC2CCCCC2)C(=O)N[C@H](/C=C/S(C)(=O)=O)Cc2ccc(CN)cc2)s1,Proteasome subunit beta type-9,competitive ABPP,Raji cell lysate,,> 10 µM
COCCCOc1ccnc(C[S+]([O-])c2nc3ccccc3[nH]2)c1C (stereo not shown),"Carboxy-terminal domain RNA polymerase II polypeptide A small phosphatase 1 (CTDSP1, Homo sapiens, UniProt Q9GZU7)","enzyme activity, inhibitor",,with: pNPP,3.6 µM
Cc1ccccc1S(=O)(=O)N1CCNCC1COc1ccc2ccccc2c1 (stereo not shown),P2RX4,"calcium flux, inhibitor, Ca2+ flux",human cells,,4.67 ± 0.23 µM
CC#CC(=O)N[C@H]1CCCN(c2c(F)cc(C(N)=O)c3[nH]c(C)c(C)c23)C1,SRC,,,,1.81 µM
Cc1cc(Nc2ccc(C(F)(F)F)cc2)n2ccnc2n1,pyrD,"enzyme activity, inhibitor, DCIP steady-state rate",,,0.098 µM
COCCOc1ccc(N2CCNCC2COc2ccc3c(c2)OCO3)cc1 (stereo not shown),P2RX4,"calcium flux, inhibitor, Ca2+ flux",human cells,,> 10 µM
Cc1nc(Nc2ncc(C(=O)Nc3c(C)cccc3Cl)s2)cc(N2CC[C@H](O)C2)n1,SRC,"enzyme activity, inhibitor",,,7e-05 µM
Cc1ncc(C(=O)N[C@@H](CC(C)C)C(=O)N[C@@H](CC2CCC(C3CCCCC3)CC2)C(=O)N[C@H](/C=C/S(C)(=O)=O)Cc2ccc(CN)cc2)s1 (stereo partly shown),Proteasome subunit beta type-9,competitive ABPP,Raji cell lysate,,> 10 µM
C1=Cc2cccc3cccc1c23,"Cytochrome P450 1B1 (CYP1B1, Homo sapiens, UniProt Q16678)",,,,12 µM

# For quick reference, copied from above:
SMILES,target,test,test system,conditions,IC50
C1=Cc2cccc3cccc1c23,"Cytochrome P450 1B1 (CYP1B1, Homo sapiens, UniProt Q16678)",,,,12 µM
COCCOc1ccc(N2CCNCC2COc2ccc3c(c2)OCO3)cc1 (stereo not shown),P2RX4,"calcium flux, inhibitor, Ca2+ flux",human cells,,> 10 µM
Cc1ccc(CNC(=O)CSCc2nc(-c3cccc(C)c3)oc2C)cc1,Probable G-protein coupled receptor 34,"antagonist, Tango",,with: LysoPS 5 µM,> 10 µM
Cc1cnc(-c2ccc(-c3ccc(NC(=O)Nc4c(F)cc(F)cc4F)cc3F)c3c2C(=O)NC3)[nH]1,SRC,"enzyme activity, inhibitor, mobility shift",,with: ATP 1 mM,0.258 µM
